Published values pooled from the literature.
Each numbered part is a random draw from the data of one study; scales do not carry over between parts.

Series 1
Target: Interferon regulatory factor 7, full length, phosphomimetic (IRF7, Homo sapiens, UniProt Q92985, residues 1-503, S471D/S472D/S475D/S476D/S477D/S483D/S484D/S487D)
Technique: protein-binding microarray
Form: double-stranded DNA, one strand shown
Matrix: in vitro
Concentration: 2200 nM top
Notes: 60-bp whole probe
Added: salmon DNA 0.4 mg/ml
Baseline: random background probes
Reading: higher = stronger binding
Measurement: fitted relative affinity
All sequences stand within: GCCTAGCAC … GTCTTGATTCGCTTGACGCTGCTG
Construct (chain): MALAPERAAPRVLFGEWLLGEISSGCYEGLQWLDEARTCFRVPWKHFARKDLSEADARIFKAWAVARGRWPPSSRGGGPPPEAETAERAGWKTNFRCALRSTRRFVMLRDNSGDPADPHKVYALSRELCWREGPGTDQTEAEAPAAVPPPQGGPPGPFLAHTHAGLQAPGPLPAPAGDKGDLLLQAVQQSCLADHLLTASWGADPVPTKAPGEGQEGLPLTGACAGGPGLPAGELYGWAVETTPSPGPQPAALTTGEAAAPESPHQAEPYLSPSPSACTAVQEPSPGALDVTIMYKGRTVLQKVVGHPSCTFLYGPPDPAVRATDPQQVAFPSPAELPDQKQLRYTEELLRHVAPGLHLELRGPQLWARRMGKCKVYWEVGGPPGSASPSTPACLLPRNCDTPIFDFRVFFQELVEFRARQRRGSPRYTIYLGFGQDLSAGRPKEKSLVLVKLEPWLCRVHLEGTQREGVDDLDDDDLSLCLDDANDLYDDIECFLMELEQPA
CAGGGTTTCACTTTAAATTAGTGCTAG: 2.76 z-score
TTAGGACTGGACTTTCGGCTAGTGCTA: 1.01 z-score
TTTTCATTGTTTTTCATCATGTGCTAG: 2.5 z-score
TTAGGACTGGGGTTTCGGTGAGTGCTA: 0.074 z-score
TTAGGACTGGACCCTGGGTTAGTGCTA: -0.917 z-score
TTGGGTATCCTACTGCTTTAGTGCTAG: 0.682 z-score
ATGTTCACTGTGTACCGTCTGTGCTAG: 1.73 z-score
GACGGTCTCGGACTGGGGAAGTGCTAG: -0.533 z-score

Series 2
Target: RING finger protein unkempt homolog, zinc fingers 1-6, GST-SBP tag (UNK, Homo sapiens, UniProt Q9C0B0, residues 30-357)
UniProt Q9C0B0, sequence (30-357, looked up): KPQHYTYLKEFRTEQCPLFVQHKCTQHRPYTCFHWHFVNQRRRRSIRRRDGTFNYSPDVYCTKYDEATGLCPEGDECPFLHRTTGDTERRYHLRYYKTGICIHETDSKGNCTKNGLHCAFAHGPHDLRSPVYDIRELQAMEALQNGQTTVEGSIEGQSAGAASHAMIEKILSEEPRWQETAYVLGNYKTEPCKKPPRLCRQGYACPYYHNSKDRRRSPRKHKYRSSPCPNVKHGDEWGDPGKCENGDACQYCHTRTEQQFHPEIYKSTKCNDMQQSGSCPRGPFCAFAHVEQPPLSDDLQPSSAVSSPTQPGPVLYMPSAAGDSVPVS
Technique: RNA Bind-n-Seq
Form: RNA
Matrix: in vitro
Concentration: not given
Notes: RNA with constant flanks, human and mouse sites, ends assumed
Baseline: input RNA pool
Reading: higher = stronger binding
Measurement: bound/input enrichment
All sequences stand within: GGGAGUUCUACAGUCCGACGAUC … CAACAGAGGAUUGAGCAUCA
CGUGGAGUUGCCGUUCUGUGCACUGAGUAAAGCUAGACUUUUCUCCAGUCCUCUUUCUGGAAUAGGAAACUCCCAAUAUUUAACCUUCAUUCAUCCUUAACGGUGUGGAAGGGUUGAUGG: 0.134 ratio
CAGAACCUGCCUUCAGGAUCGUCACGGGUUGGAGCCAUUAAACUUACCUACAUUUCAAAGGUUAGCGAUGCAACUAAGUUAAGGCCAAAGGCAGAGUUUUGUUUUGUUAUGAAUGCAGGA: 0.25 ratio
AAAGAGGAUAUUGGUAUUGGUUCUUAUUCUGUUUGCAAGCGAUGCAUACACUCAGCUUCCAAUGUGGAAUUUGCAGUCAAGAUCAUUGAUAAAAAUAAGAGAGACCCCUCAGAAGAAAUU: 0.137 ratio
GGUUUCAAUGAAACUGAUGAUUUAAAGAGAGCCGAAAGUAUGCUUCAACAAGCAGAUAAAUUAGGUUGCAGACAGUUCGUUACUCCAGCUGAUGUUGUCAGCGGAAACCCCAAACUGAAC: 0.153 ratio
GUUUUUGACAAUUUUUUUAUCAAGAAAGAGCAAAUAAAAAGCAGUGGUAAUGAUCCAAAGUAUAGUACAACCACAGCUCAGAAUUCCAGCAGUUCAUCCAGUCAGAGCAAAAUGGUUAAU: 0.368 ratio
GCCAGUACAUCUGACAUUGAAGAGAAGGAGAACAGAGAGUCUUCAAGUUUGCGAACAAGUAGUUCUUACACAAGAAGAAAAUGGGAAGAUGAUCUUAAAAAGAAUAGUUCGAUCAAUGAA: 0.359 ratio
GCAAAGGAAAAAGAAGUAGAGAGUUUAAAACUUCCUUCAGAAAAGAACAGUAAUAAAGCUAAAACUGUUGAAGGGACAAAAGAAGAUUUCUCUUUGAUAGAUUCUGAUGUGGAUGGACUU: 0.282 ratio
UGUGGCGCCAGAGGCCUAGGUGCUGACCCCGGCUUAGAGAGAAGAAAGAAUAUCUUGUUCUUUGUUAGAAAUCUCCACAGCAAGAGUAGUACUUGGUGGGAUGAACAUCUUUCUGAAGAA: 0.345 ratio
AUGGACUUACAGCUUCAUAUUUAUCAGUUGAAAACACUAAUUAGGAUGGUAAAGAAAACCUACAGAGAUUUCCGAUUGCAAGGGGUCCUGGACUCCACCUUAAACAGCAAGACCUAUGAA: 0.6 ratio

Series 3
Target: Sal-like protein 4, full length isoform A (SALL4, Homo sapiens, UniProt Q9UJQ4, residues 1-1053)
UniProt Q9UJQ4, sequence (whole entry, looked up): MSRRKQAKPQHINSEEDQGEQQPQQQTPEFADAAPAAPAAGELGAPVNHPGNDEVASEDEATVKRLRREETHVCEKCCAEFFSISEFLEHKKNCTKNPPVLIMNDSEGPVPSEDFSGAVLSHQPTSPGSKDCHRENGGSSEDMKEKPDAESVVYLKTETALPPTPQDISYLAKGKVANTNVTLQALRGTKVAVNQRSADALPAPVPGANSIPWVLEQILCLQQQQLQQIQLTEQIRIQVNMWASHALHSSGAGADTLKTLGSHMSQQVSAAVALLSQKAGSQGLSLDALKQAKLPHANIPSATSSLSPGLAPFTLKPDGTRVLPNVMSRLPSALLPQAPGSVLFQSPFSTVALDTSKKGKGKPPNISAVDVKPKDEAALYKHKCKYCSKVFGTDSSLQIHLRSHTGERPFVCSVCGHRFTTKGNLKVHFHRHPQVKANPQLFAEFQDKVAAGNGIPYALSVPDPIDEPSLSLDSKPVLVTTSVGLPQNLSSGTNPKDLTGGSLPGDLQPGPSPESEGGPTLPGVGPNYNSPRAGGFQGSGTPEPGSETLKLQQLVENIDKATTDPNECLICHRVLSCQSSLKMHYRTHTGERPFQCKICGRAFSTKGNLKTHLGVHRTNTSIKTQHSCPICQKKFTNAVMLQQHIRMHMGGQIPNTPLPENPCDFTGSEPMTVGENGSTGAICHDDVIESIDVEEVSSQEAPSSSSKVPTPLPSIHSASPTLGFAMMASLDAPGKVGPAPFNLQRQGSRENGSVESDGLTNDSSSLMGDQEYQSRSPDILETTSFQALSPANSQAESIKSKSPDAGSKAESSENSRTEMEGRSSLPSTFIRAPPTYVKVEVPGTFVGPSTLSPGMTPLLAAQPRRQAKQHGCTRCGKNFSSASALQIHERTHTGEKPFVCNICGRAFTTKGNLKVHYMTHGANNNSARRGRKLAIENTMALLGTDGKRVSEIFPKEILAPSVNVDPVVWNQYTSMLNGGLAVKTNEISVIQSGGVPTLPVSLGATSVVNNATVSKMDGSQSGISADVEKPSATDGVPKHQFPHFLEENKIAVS
Technique: universal PBM
Form: double-stranded DNA, one strand shown
Matrix: in vitro
Concentration: 600 nM
Notes: 8-mer, flanks averaged, mean of replicates
Reading: higher = stronger binding
Measurement: E-score
AAAAAGGC: 0.14
AAACCTCC: -0.16
CTAAACCA: 0.0717
AGTCCATA: 0.104
ACAGACAA: 0.263
ATAGGGAC: 0.0476
ACCAGAGG: -0.163

Mixed results
PhoQ, residues 284 288 289 292 302 303 AGCYAI  fold induction (PhoP, residues 12 14 15 18 19 LHSVQ (Escherichia coli, UniProt P23836); Sort-seq, measured: YFP reporter; E. coli; PhoQ-PhoP variant library, added: 10 µM Mg2+; baseline: high Mg2+ state, higher = stronger signaling): 1.09
